Measurements collected from several papers.
Lines come from different studies, so protocols differ. Numbers after ± are the reported error. In brackets after ≈: the same amount, converted by molar mass.
rep main protease: Replicase polyprotein 1ab, main protease (rep, Middle East respiratory syndrome-related coronavirus, UniProt K9N7C7)
rep macrodomain 1: Replicase polyprotein 1ab, macrodomain 1 (rep, Middle East respiratory syndrome-related coronavirus, UniProt K9N7C7)
OPRK1: Kappa-type opioid receptor (OPRK1, Homo sapiens, UniProt P41145)
Sequence of UniProt P41145 (whole entry, looked up): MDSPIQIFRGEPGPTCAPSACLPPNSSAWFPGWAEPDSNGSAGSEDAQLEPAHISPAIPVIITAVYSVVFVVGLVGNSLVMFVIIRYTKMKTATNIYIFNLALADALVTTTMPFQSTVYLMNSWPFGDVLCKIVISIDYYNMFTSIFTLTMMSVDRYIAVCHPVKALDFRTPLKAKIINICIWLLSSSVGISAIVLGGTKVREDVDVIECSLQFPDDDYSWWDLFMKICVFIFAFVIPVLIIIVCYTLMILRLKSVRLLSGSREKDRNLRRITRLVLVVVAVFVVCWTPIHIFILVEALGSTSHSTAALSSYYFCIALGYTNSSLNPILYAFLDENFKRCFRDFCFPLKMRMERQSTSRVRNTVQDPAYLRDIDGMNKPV
rep papain-like protease: Replicase polyprotein 1ab, papain-like protease (rep, Middle East respiratory syndrome-related coronavirus, UniProt K9N7C7)
Sequence of UniProt P41143 (whole entry, looked up): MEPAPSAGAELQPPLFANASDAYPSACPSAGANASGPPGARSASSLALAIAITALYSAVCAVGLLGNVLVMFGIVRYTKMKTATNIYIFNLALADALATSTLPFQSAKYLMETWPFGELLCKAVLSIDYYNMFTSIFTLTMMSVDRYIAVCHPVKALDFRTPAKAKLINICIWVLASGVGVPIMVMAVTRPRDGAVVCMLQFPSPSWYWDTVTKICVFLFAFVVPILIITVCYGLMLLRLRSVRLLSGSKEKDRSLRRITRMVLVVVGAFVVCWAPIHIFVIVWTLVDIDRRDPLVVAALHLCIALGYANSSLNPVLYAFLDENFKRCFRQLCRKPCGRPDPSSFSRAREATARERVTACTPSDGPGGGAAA

O=C(/C=C/c1ccc2c(c1)OCO2)N[C@@H](Cc1ccccc1)C(=O)N[C@H](CO)C[C@@H]1CCNC1=O — IC50 (rep main protease; enzyme activity, inhibitor): > 25 µM
CCCCCCCCCCCCCCCC(=O)N[C@@H](CCC(=O)NCCCC[C@H](NC(=O)[C@H](CC(=O)O)NC(=O)[C@H](CO)NC(=O)[C@@H](NC(=O)[C@H](Cc1ccccc1)NC(=O)[C@@H](NC(=O)CNC(=O)[C@H](CCC(N)=O)NC(=O)[C@H](C)NC(=O)[C@@H](Cc1ccc(O)cc1)NC(C)=O)[C@@H](C)O)[C@@H](C)O)C(=O)N[C@@H](CO)C(=O)N[C@@H](CCCCN)C(=O)N[C@@H](Cc1ccc(O)cc1)C(=O)N[C@@H](CC(C)C)C(=O)N[C@@H](CC(=O)O)C(=O)N[C@@H](CCC(=O)O)C(=O)N[C@@H](CCCNC(=N)N)C(=O)N[C@@H](C)C(=O)N[C@@H](C)C(=O)N[C@@H](CCC(N)=O)C(=O)N[C@@H](CC(=O)O)C(=O)N[C@@H](Cc1ccccc1)C(=O)N[C@H](C(=O)N[C@@H](CCC(N)=O)C(=O)N[C@@H](Cc1c[nH]c2ccccc12)C(=O)N[C@@H](CC(C)C)C(=O)N[C@@H](CC(C)C)C(=O)N[C@@H](CCC(=O)O)C(=O)NCC(=O)NCC(=O)N1CCC[C@H]1C(=O)N[C@@H](CO)C(=O)N[C@@H](CO)C(=O)NCC(=O)N[C@@H](C)C(=O)N1CCC[C@H]1C(=O)N1CCC[C@H]1C(=O)N1CCC[C@H]1C(=O)N[C@@H](CO)C(N)=O)C(C)C)C(=O)O — clearance (cynomolgus monkey, plasma; intravenous, 0.0031 mg/kg): 0.102 to 0.141 mL/min/kg
O=C[C@H](C[C@@H]1CCNC1=O)NC(=O)[C@H](Cc1ccccc1)NC(=O)/C=C/c1ccc2c(c1)OCO2 — IC50 (rep main protease; enzyme activity, inhibitor): > 25 µM
CC[C@H](C)[C@H](NC(=O)[C@H](CCCCN)NC(=O)[C@H](CCCCN)NC(=O)[C@H](CC(C)C)NC(=O)[C@H](Cc1c[nH]c2ccccc12)NC(=O)CN)C(=O)NCC(=O)N[C@@H](CCCCN)C(=O)N[C@@H](CCCCN)C(=O)N[C@H](C(=O)N[C@@H](CCC(=O)O)C(=O)N[C@@H](CCCNC(=N)N)C(=O)N[C@H](C(=O)NCC(=O)N[C@@H](CCC(N)=O)C(=O)N[C@@H](Cc1c[nH]cn1)C(=O)N[C@H](C(=O)N[C@@H](CCCNC(=N)N)C(=O)N[C@@H](CC(=O)O)C(=O)N[C@@H](C)C(=O)N[C@H](C(=O)N[C@H](C(=O)N[C@@H](CCC(N)=O)C(=O)N[C@H](C(=O)N[C@H](C(=O)NCC(=O)N[C@H](C(=O)N[C@@H](C)C(=O)N[C@@H](CCC(N)=O)C(=O)N[C@@H](CCC(N)=O)C(=O)N[C@@H](C)C(=O)N[C@@H](C)C(=O)N[C@@H](CC(N)=O)C(=O)N[C@H](C(=O)N[C@@H](C)C(=O)N[C@@H](C)C(=O)N[C@H](C(=O)N[C@@H](CC(C)C)C(=O)N[C@@H](CCCCN)C(N)=O)[C@@H](C)O)C(C)C)C(C)C)[C@@H](C)CC)[C@@H](C)O)[C@@H](C)CC)[C@@H](C)O)[C@@H](C)O)C(C)C)[C@@H](C)CC — MIC (Klebsiella pneumoniae; broth microdilution; RKI 93/10, CAMHB with 10% mouse serum; 150 mM NaCl): 1 mg/L (≈ 0.238 µM)
COc1cc(C(=O)N(CCC(=O)N2CCNCC2)Cc2cccc(Cl)c2)cc(OC)c1OC — IC50 (rep macrodomain 1; inhibitor; MERS-CoV): > 300 µM
C=CC(=O)NC(CC(=C)C)C(=O)N1CC(C(=O)NC(Cc2ccco2)C(=O)NC)C(c2cccc(C(F)(F)F)c2)C1 (stereo not drawn) — IC50 (rep main protease; enzyme activity, inhibitor): > 100 µM
Cc1cc(O)cc(C)c1C[C@H](N)C(=O)NCC(=O)NCC(=O)N[C@@H](Cc1ccccc1)C(=O)N[C@H](C(=O)NCC(=O)N[C@@H](C)C(=O)N[C@@H](CCCNC(=N)N)C(=O)N[C@@H](CCCCN)C(=O)N[C@@H](CO)C(=O)N[C@@H](C)C(=O)N[C@@H](CCCNC(=N)N)C(=O)N[C@@H](CCCCN)C(N)=O)[C@@H](C)O — EC50 (Delta-type opioid receptor (OPRD1, Homo sapiens, UniProt P41143); GTPγS binding, agonist, radiometric; cell membranes): 6.76 nM
CC(C)C[C@H](NC(=O)[C@H](CO[C@@H]1O[C@H](CO)[C@@H](O)[C@H](O)[C@H]1O)NC(=O)[C@H](CCCCN)NC(=O)[C@H](CC(C)C)NC(=O)[C@H](C)NC(=O)[C@H](CCCCN)NC(=O)[C@H](CCC(=O)O)NC(=O)CNC(=O)[C@H](CC(C)C)NC(=O)[C@H](CC(N)=O)NC(=O)[C@@H]1CCCN1C(=O)[C@H](CC(C)C)NC(=O)[C@H](Cc1ccccc1)NC(=O)CNC(=O)[C@H](NC(=O)[C@@H](N)Cc1ccc(O)cc1)[C@H](C)O)C(N)=O — Ki (OPRK1; ligand displacement, radioligand; pH 7.5, cell membranes): 11 nM
CCC(C(=O)Nc1ccccc1C)n1cccc2nc(SCc3ccc(F)cc3)nc1-2 (stereo not drawn) — IC50 (rep papain-like protease; enzyme activity, inhibitor): > 100 µM
CC(C)C[C@H](NC(=O)[C@H](CO)NC(=O)[C@H](CCCCN)NC(=O)[C@H](CC(C)C)NC(=O)C(C)(C)NC(=O)[C@H](CCCCN)NC(=O)[C@H](CCC(=O)O)NC(=O)C(C)(C)NC(=O)[C@H](CC(C)C)NC(=O)[C@H](CC(N)=O)NC(=O)[C@@H]1CCCN1C(=O)[C@H](CC(C)C)NC(=O)[C@H](Cc1ccccc1)NC(=O)CNC(=O)[C@H](NC(=O)[C@@H](N)Cc1ccc(O)cc1)[C@H](C)O)C(N)=O — Ki (OPRK1; ligand displacement, radioligand; pH 7.5, cell membranes): 14 nM
C=CC(=O)NC(CC(=C)C)C(=O)N1CC(C(=O)NC(Cc2ccccc2)C(=O)NC)C(c2cccc(C(F)(F)F)c2)C1 (stereo not drawn) — IC50 (rep main protease; enzyme activity, inhibitor): > 100 µM
CCC(C(=O)Nc1ccc(C)cc1)n1cccc2nc(SCc3ccc(F)cc3)nc1-2 (stereo not drawn) — IC50 (rep papain-like protease; enzyme activity, inhibitor): > 100 µM
CCC[C@H](NC(=O)[C@H](CC(C)C)NC(=O)OCc1ccccc1)C(=O)C(=O)NCc1ccccn1 — IC50 (rep main protease; enzyme activity, inhibitor): 6.68 µM
C=CCC(NC(=O)C1CN(C(=O)C(CC(=C)C)NC(=O)C=C)CC1c1cccc(C(F)(F)F)c1)C(=O)NC (stereo not drawn) — IC50 (rep main protease; enzyme activity, inhibitor): > 100 µM
COC(=O)[C@H](C[C@@H]1CCNC1=O)NC(=O)[C@H](Cc1ccccc1)NC(=O)/C=C/c1ccc2c(c1)OCO2 — IC50 (rep main protease; enzyme activity, inhibitor): > 25 µM
CCCC(C(=O)Nc1ccccc1C)n1c(SCc2ccc(F)cc2)nc2cccnc21 (stereo not drawn) — IC50 (rep papain-like protease; enzyme activity, inhibitor): > 100 µM
O=C(c1ccc(Br)cc1)N1CCC(c2ccn3ncc(C(=O)N4CCCCC4)c3c2)CC1 — IC50 (rep macrodomain 1; inhibitor; MERS-CoV): 182 ± 4.7 µM
CCCCCCCCCCCCCCCC(=O)N[C@@H](CCC(=O)NCCOCCOCCC(=O)NCCOCCOCCC(=O)NCCCC[C@H](NC(=O)[C@H](CC(=O)O)NC(=O)[C@H](CC(C)C)NC(=O)[C@H](Cc1ccc(O)cc1)NC(=O)[C@H](CCCCN)NC(=O)[C@H](CO)NC(=O)[C@H](Cc1ccc(O)cc1)NC(=O)[C@H](CC(=O)O)NC(=O)[C@H](CO)NC(=O)[C@@H](NC(=O)[C@H](Cc1ccccc1)NC(=O)[C@@H](NC(=O)CNC(=O)[C@H](CCC(N)=O)NC(=O)[C@@H](CO)NC(=O)[C@@H](N)Cc1c[nH]cn1)[C@@H](C)O)[C@@H](C)O)C(=O)N[C@@H](CCCNC(=N)N)C(=O)N[C@@H](CCCNC(=N)N)C(=O)N[C@@H](C)C(=O)N[C@@H](CCC(N)=O)C(=O)N[C@@H](CC(=O)O)C(=O)N[C@@H](Cc1ccccc1)C(=O)N[C@H](C(=O)N[C@@H](CCC(N)=O)C(=O)N[C@@H](Cc1c[nH]c2ccccc12)C(=O)N[C@@H](CC(C)C)C(=O)N[C@@H](CC(C)C)C(=O)N[C@@H](CC(N)=O)C(=O)N[C@H](C(=O)NCC(=O)NCC(=O)N1CCC[C@H]1C(=O)N[C@@H](CO)C(=O)N[C@@H](CO)C(=O)NCC(=O)N[C@@H](C)C(=O)N1CCC[C@H]1C(=O)N1CCC[C@H]1C(=O)N1CCC[C@H]1C(=O)N[C@@H](CO)C(N)=O)[C@@H](C)O)C(C)C)C(=O)O — serum total bilirubin (male Sprague-Dawley rats; subcutaneous, 20 µg/kg once daily, 14 days): 1 ± 0.3 µmol/L
